Results from different studies.
Compare with care: the assays were run in different laboratories. ± gives the spread as reported.

Compound = CC(=O)OC12COC1CC(OC(=O)CCCOc1ccc3c(-c4ccccc4C(=O)OCC(C)C)c4ccc(=O)cc-4oc3c1)C1(C)C(=O)C(OC(=O)C3CC3)C3=C(C)C(OC(=O)C(O)C(C=C(C)C)NC(=O)OC(C)(C)C)CC(O)(C(OC(=O)c4ccccc4)C21)C3(C)C (stereo not shown); cell line = ID8 mouse ovarian cancer; assay = cell growth; setting = concentration not given; IC50 = 0.846 ± 0.112 µM
Compound = CCN1CC2(COC)C(O)CC(OC)C34C5CC6(O)C(OC)C(O)C(O)(C5C6OC(=O)c5ccccc5)C(C(OC)C23)C14 (stereo not shown); cell line = HBE; assay = cell growth or viability, MTT; IC50 = 28.7 µM
Compound = N=C(N)NCCC[C@@H](N)C(=O)N[C@@H](Cc1c[nH]c2ccccc12)C(=O)N[C@@H](CCC(N)=O)C(=O)N[C@@H](Cc1c[nH]c2ccccc12)C(=O)N[C@@H](CCCN)C(=O)N[C@@H](Cc1c[nH]c2ccccc12)C(=O)N[C@@H](CCC(N)=O)C(=O)N[C@@H](Cc1c[nH]c2ccccc12)C(=O)N[C@@H](CCCNC(=N)N)C(N)=O; cell line = HT-29; assay = cell growth or viability, MTT; IC50 = > 138 µM
Compound = O=C1C=CC(=O)c2c(O)ccc(O)c21; cell line = HuCC-A1; assay = cell growth or viability, MTT; IC50 = 1.55 µM
Compound = COCC12CN(C)C3C4C(OC)C1C3(C(OC)CC2O)C1CC2(O)C(OC)C(O)C4(OC(C)=O)C1C2OC(=O)c1ccccc1 (stereo not shown); cell line = HBE; assay = cell growth or viability, MTT; IC50 = 26.3 µM
Compound = COC(=O)CC[C@@H](NC(=O)[C@@H](Cc1ccc(OP(=O)(O)O)cc1)NC(=O)[C@@H](Cc1ccccc1)NC(=O)[C@@H](Cc1ccccc1)NC(=O)Cc1ccc2ccccc2c1)C(=O)OC; cell line = OVSAHO; assay = cell viability; setting = day 1 (24 h); IC50 = > 20 µM
Compound = CCN1CC2(COC)CCC(OC)C34C5CC6C(OC)CC(C5C6O)C(C(OC)C23)C14 (stereo not shown); cell line = NCI-H460; assay = cell growth or viability, MTT; IC50 = 9.92 µM
Compound = CC(=O)N[C@@H](Cc1c[nH]cn1)C(=O)N[C@@H](CCCNC(=N)N)C(=O)N[C@@H](CCCNC(=N)N)C(=O)N[C@@H](CCCNC(=N)N)C(=O)N[C@@H](CCCNC(=N)N)C(=O)N[C@@H](CCCNC(=N)N)C(=O)N[C@@H](CCCNC(=N)N)C(=O)N[C@@H](CCCNC(=N)N)C(=O)N[C@@H](CCCNC(=N)N)C(=O)N[C@@H](Cc1c[nH]cn1)C(N)=O; cell line = H22; assay = CCK-8; setting = 24 h; IC50 = 6.2 ± 0.19 µM
Compound = COCC12CN(C)C3C4C(OC)C1C3(C(OC)CC2O)C1CC2(O)C(O)C1C4(O)C(O)C2OC (stereo not shown); cell line = NCI-H460; assay = cell growth or viability, MTT; IC50 = 7.97 µM
Compound = CNC(=O)c1cc(Oc2ccc(NC(=O)c3cc(-c4cccc(OC(=O)CCC(=O)OC5OC6OC7(C)CCC8C(C)CCC(C5C)C68OO7)c4)ccn3)cc2)ccn1 (stereo not shown); cell line = L02; assay = cell growth or viability, MTT; setting = 72 h; IC50 = 44.1 µM
Compound = CCCN1CCNC1=[S+][Ag-3]([O][N+](=O)[O-])([P+](c1ccccc1)(c1ccccc1)c1ccccc1)[P+](c1ccccc1)(c1ccccc1)c1ccccc1; cell line = MG-63; assay = MTT; setting = 24 h; IC50 = 6.42 µM
Compound = [Cl][Au].[Se]=c1n(C2CCCCC2)ccn1C1CCCCC1; cell line = LoVo; assay = cell growth or viability, MTT; setting = 72 h; IC50 = 2.6 µM
Compound = O=C(Cc1ccc2ccccc2c1)N[C@H](Cc1ccccc1)C(=O)N[C@H](Cc1ccccc1)C(=O)N[C@H](Cc1ccc(O)cc1)C(=O)N[C@H](Cc1ccc(OP(=O)(O)O)cc1)C(=O)O; cell line = T98G; assay = cell growth or viability, MTT; IC50 = 327 µg/mL
Compound = Cc1cc(C)c(-n2ccn(-c3c(C)cc(C)cc3C)c2=[Se])c(C)c1.[Cl][Ag]; cell line = human ovarian cancer cells; assay = cell viability, MTT; setting = 72 h; IC50 = 3.1 ± 1.1 µM
Compound = C[C@H](NC(=O)[C@H](CCCNC(=N)N)NC(=O)[C@H](CCCNC(=N)N)NC(=O)[C@@H]1CCCN1C(=O)CNC(=O)[C@H](CCCNC(=N)N)NC(=O)[C@H](CCCNC(=N)N)NC(=O)CN)C(=O)N[C@@H](CC(N)=O)C(=O)N[C@@H](CCC(N)=O)C(=O)N[C@@H](CC(N)=O)C(=O)NCC(=O)N[C@H](C(=O)N[C@@H](CCCNC(=N)N)C(=O)N[C@@H](CCCNC(=N)N)C(=O)N[C@@H](CCCNC(=N)N)C(=O)N[C@@H](CCCNC(=N)N)C(=O)N[C@@H](CCCNC(=N)N)C(=O)N[C@@H](CCCNC(=N)N)C(=O)N[C@H](C(N)=O)[C@@H](C)O)[C@@H](C)O; cell line = BT-474; assay = cell viability, CellTiter-Blue; setting = 24 h, serum-free medium; IC50 = > 100 µM
Compound = CC(C)c1cccc(C(C)C)c1-n1c[n+](-c2c(C(C)C)cccc2C(C)C)c2c1-c1cccc3cccc-2c13.[Cl][Pd-]([Cl])[CH2]C=Cc1ccccc1; cell line = 2008 spheroids; assay = cell viability, APH; system = 3D spheroids; setting = 72 h; IC50 = 31 ± 8 µM
Compound = Cc1ccc(-n2nc3c(=O)n(CCCC(=O)NCC(C)c4ccccc4)nc(C)c3c2C)cc1 (stereo not shown); cell line = primary pancreatic cancer KRAS G12D; assay = cell growth, CCK-8; setting = 72 h; IC50 = > 100 µM
Compound = C[C@H]1C(OCCCCCCC[P+](c2ccccc2)(c2ccccc2)c2ccccc2)O[C@@H]2O[C@@]3(C)CCC4[C@H](C)CCC1[C@]42OO3 (stereo partly shown); cell line = HUVEC; assay = cell viability, MTT; setting = 72 h; IC50 = 0.162 ± 0.0041 µM
Compound = F[P-](F)(F)(F)(F)F.OCP(CO)CO.OCP(CO)CO.OCP(CO)CO.OCP(CO)CO.[Cu+]; cell line = CCD-18Co; assay = cell growth or viability, MTT; setting = 72 h; IC50 = 39 µM
Compound = OC[C@H]1[C@@H](O)[C@@H](O)CN1Cc1ccccc1; cell line = U2OS; assay = cell growth or viability, MTS; setting = 72 h; IC50 = > 200 µM
Compound = C[C@H]1C(OCCCCCCCC[P+](c2ccccc2)(c2ccccc2)c2ccccc2)O[C@@H]2O[C@@]3(C)CCC4[C@H](C)CCC1[C@]42OO3 (stereo partly shown); cell line = J82; assay = cell growth or viability, MTT; setting = 72 h; IC50 = 0.0618 µM
Compound = COCC12CN(C)C3C4C(OC)C1C3(C(OC)CC2O)C1CC2(O)C(OC)C(O)C4(O)C1C2OC(=O)c1ccccc1 (stereo not shown); cell line = HBE; assay = cell growth or viability, MTT; IC50 = 32.8 µM
Compound = C[C@H]1[C@H](OC(=O)CCC(=O)Oc2ccc(C(N)=S)cc2)O[C@@H]2O[C@@]3(C)CC[C@H]4[C@H](C)CC[C@@H]1[C@@]24OO3; cell line = L02; assay = cell growth or viability, CCK-8; setting = 72 h; IC50 = 2.24 µM
Compound = CCN1CC2(COC)CCC(OC)C34C5CC6(O)C(OC)C(O)C(O)(C5C6OC(=O)c5ccccc5)C(C(OC)C23)C14 (stereo not shown); cell line = HBE; assay = cell growth or viability, MTT; IC50 = 25.7 µM
Compound = CC(C)C[C@H](NC(=O)[C@@H](CCCCN)NC(=O)[C@H](Cc1c[nH]cn1)NC(=O)[C@H](CO)NC(=O)[C@H](Cc1c[nH]c2ccccc12)NC(=O)[C@H](Cc1c[nH]cn1)NC(=O)[C@@H]1CCC(=O)N1)C(=O)N[C@@H](CCCNC(=N)N)C(=O)N1CCC[C@H]1C(=O)NCC(N)=O; cell line = WPE-1-NB26-3; assay = cell growth, inhibitor, sulforhodamine B staining; setting = four days; IC50 = 0.0031 ± 0.0018 µM
Compound = C(#C[P+](c1ccccc1)(c1ccccc1)c1ccccc1)c1ccccc1; cell line = human primary melanocytes and fibroblasts; assay = cytotoxicity; IC50 = > 30 µM
Compound = CN1C(=O)[C@H](Cc2ccccc2)N(C)C(=O)[C@@H]2[C@H]1CCN2Cc1cc(Cl)cc(Cl)c1; cell line = KHYG-1 with Ba/F3-MICA cells; assay = NKG2D-mediated cell killing, inhibitor; setting = 6 h; IC50 = ~40 µM
Compound = O=C1CC2(C1)C(=O)[O][Pt]1([Cl])([O]C(=O)C(F)(F)F)([NH][C@@H]3CCCC[C@H]3[NH]1)[O]C2=O; cell line = NCI-H460; assay = cell growth or viability, MTT; IC50 = 7.66 µM
Compound = COc1ccnc(-c2cc(OC)ccn2)c1.[C-]#[O+].[C-]#[O+].[C-]#[O+].[Re+]; cell line = KB 3-1; assay = cell viability; IC50 = 0.77 ± 0.17 µM
Compound = COc1cc(C=CC(=O)CC(=O)C=Cc2ccc(OC(=O)CCC(=O)OC3OC4OC5(C)CCC6C(C)CCC(C3C)C46OO5)c(OC)c2)ccc1OC(=O)CCC(=O)OC1OC2OC3(C)CCC4C(C)CCC(C1C)C24OO3 (stereo not shown); cell line = C3PV; assay = cell growth or viability, MTT; setting = 24 h; IC50 = > 300 µM
Compound = CN(C)CC1C(=O)OC2C1CCC1(C)CC1CCC1(C)OC21 (stereo not shown); cell line = GBM6; assay = cell growth or viability, resazurin; IC50 = 3.2 µM
Compound = C[C@H]1C(OCCCCCC[P+](c2ccccc2)(c2ccccc2)c2ccccc2)O[C@@H]2O[C@@]3(C)CCC4[C@H](C)CCC1[C@]42OO3 (stereo partly shown); cell line = J82; assay = cell growth or viability, MTT; setting = 72 h; IC50 = 0.17 µM
Compound = O=C(Cc1ccc2ccccc2c1)N[C@H](Cc1ccc(O)cc1)C(=O)N[C@H](Cc1ccccc1)C(=O)N[C@H](Cc1ccccc1)C(=O)N[C@H](Cc1ccc(O)cc1)C(=O)O; cell line = T98G; assay = cell growth or viability, MTT; IC50 = > 500 µg/mL
Compound = C[C@H]1C(OCCCCC[P+](c2ccccc2)(c2ccccc2)c2ccccc2)O[C@@H]2O[C@@]3(C)CCC4[C@H](C)CCC1[C@]42OO3 (stereo partly shown); cell line = HUVEC; assay = cell viability, MTT; setting = 72 h; IC50 = 0.41 ± 0.0251 µM
Compound = Cc1cc(C)c(-n2c[n+](-c3c(C)cc(C)cc3C)c3c2-c2cccc4cccc-3c24)c(C)c1.[Cl][Pd-]([Cl])[CH2]C=Cc1ccccc1; cell line = NTERA2; assay = cell growth or viability, MTT; setting = 72 h; IC50 = 1.1 µM
Compound = CNC(=O)c1cc(Oc2ccc(NC(=O)c3cc(-c4ccccc4OC(=O)CCC(=O)OC4OC5OC6(C)CCC7C(C)CCC(C4C)C57OO6)ccn3)cc2)ccn1 (stereo not shown); cell line = L02; assay = cell growth or viability, MTT; setting = 72 h; IC50 = 42.7 µM
Compound = CCN1CC2(COC)CCC(OC)C34C5CC6C(OC)C(O)C(O)(C(CC23)C14)C5C6OC(=O)c1ccccc1 (stereo not shown); cell line = HBE; assay = cell growth or viability, MTT; IC50 = 31 µM
Compound = CC1(CCCO[C@H]2O[C@H](CO)[C@@H](O)[C@H](O)[C@H]2O)C(=O)[O][Pt][O]C1=O.N[C@@H]1CCCC[C@H]1N; cell line = MRC5; assay = cell growth or viability, MTT; IC50 = > 100 µM
Compound = CCN1CC2(COC)CCC(O)C34C5CC6C(OC)CC(O)(C5C6O)C(C(OC)C23)C14 (stereo not shown); cell line = HBE; assay = cell growth or viability, MTT; IC50 = 24.3 µM
Compound = CN(C)C(=O)[C@@H](NC(=O)c1cnccc1-c1ccc(C(F)(F)F)cc1)c1cc(C(F)(F)F)cc(C(F)(F)F)c1; cell line = KHYG-1 with Ba/F3-MICA cells; assay = NKG2D-mediated cell killing, inhibitor; setting = 6 h; IC50 = 0.2 ± 0.2 µM
Compound = [CH3][Ti+2][O]C(=O)c1ccc([S][Au][PH](c2ccccc2)(c2ccccc2)c2ccccc2)cc1.c1cc[cH-]c1.c1cc[cH-]c1; cell line = HEK-293T; assay = cell growth or viability, XTT; setting = 72 h; IC50 = 0.49 µM
Compound = CCC(=O)C(NC(=O)c1ccccc1-c1ccc(C(F)(F)F)cc1)c1cccc(C(F)(F)F)c1 (stereo not shown); cell line = KHYG-1 with Ba/F3-MICA cells; assay = NKG2D-mediated cell killing, inhibitor; setting = 6 h; IC50 = > 40 µM
Compound = C1N2CN3CN1CP(C2)C3.CC(C)OC(=O)C(n1cccn1)n1cccn1.F[P-](F)(F)(F)(F)F.[Cu+]; cell line = BCPAP; assay = cell growth or viability, MTT; setting = 72 h; IC50 = 46.5 µM

A few entries again:
Compound = CN1C(=O)[C@H](Cc2ccccc2)N(C)C(=O)[C@@H]2[C@H]1CCN2Cc1cc(Cl)cc(Cl)c1; cell line = KHYG-1 with Ba/F3-MICA cells; assay = NKG2D-mediated cell killing, inhibitor; setting = 6 h; IC50 = ~40 µM
Compound = O=C1CC2(C1)C(=O)[O][Pt]1([Cl])([O]C(=O)C(F)(F)F)([NH][C@@H]3CCCC[C@H]3[NH]1)[O]C2=O; cell line = NCI-H460; assay = cell growth or viability, MTT; IC50 = 7.66 µM
Compound = COc1ccnc(-c2cc(OC)ccn2)c1.[C-]#[O+].[C-]#[O+].[C-]#[O+].[Re+]; cell line = KB 3-1; assay = cell viability; IC50 = 0.77 ± 0.17 µM
Compound = COc1cc(C=CC(=O)CC(=O)C=Cc2ccc(OC(=O)CCC(=O)OC3OC4OC5(C)CCC6C(C)CCC(C3C)C46OO5)c(OC)c2)ccc1OC(=O)CCC(=O)OC1OC2OC3(C)CCC4C(C)CCC(C1C)C24OO3 (stereo not shown); cell line = C3PV; assay = cell growth or viability, MTT; setting = 24 h; IC50 = > 300 µM
